Values quoted from earlier work as cited in several papers.
Each line is one published result; not all experiments were run side by side. Numbers after ± are the reported error. Converted amounts (≈) assume the structure as drawn.

Structure (SMILES)	target or system	test	test system	conditions	scale	quantity	value
COc1cc(Cc2cnc(N)nc2N)cc(/C=C/C(=O)N2N=Cc3ccccc3C2CC(C)C)c1OC (racemic)	Bacillus anthracis					MIC	1 to 2 µg/mL (≈ 2 to 4 µM)
O=C(/C=C/c1ccccc1)N[C@H](COC(=O)c1ccccc1)C(=O)NC1CCCCC1	Replicase polyprotein 1a, 3C-like proteinase (Severe acute respiratory syndrome-related coronavirus, UniProt P0C6U8, R3428I)	enzyme activity, inhibitor				IC50	30 µM
CCCC1c2ccccc2C=NN1C(=O)/C=C/c1cc(Cc2cnc(N)nc2N)cc(OC)c1OC (racemic)	Dihydrofolate reductase (dfrA, Bacillus anthracis, UniProt Q81R22)					Ki	9.4 ± 0.2 nM
CCOc1c(SSc2cnn(-c3ccccc3)c(=O)c2OCC)cnn(-c2ccccc2)c1=O	Sortase A (Bacillus anthracis str. H9401, UniProt P0DPQ5)	inhibitor				IC50	1.2 ± 0.4 µM
O=C(Nc1ccc(Cl)c(-c2nc3ncccc3o2)c1)c1cccc(OCc2ccccc2)c1	Replicase polyprotein 1ab, helicase nsp13 (rep, Severe acute respiratory syndrome-related coronavirus, UniProt P0C6X7)	DNA duplex unwinding, inhibitor				IC50	6 µM
c1cc[n+](CCCCCCCCCC[n+]2ccccc2)cc1			mouse		relative to: LD50 pretreated over non-pretreated	protective ratio	0.91
COc1cc(Cc2cnc(N)nc2N)cc(/C=C/C(=O)N2N=Cc3ccccc3C2C=C(C)C)c1OC (racemic)	Bacillus anthracis		Sterne			MIC	0.5 µg/mL (≈ 1 µM)
CC[C@H](C)[C@H](NC(=O)[C@H](C)NC(=O)[C@H](CC(C)C)NC(=O)[C@H](CCC(N)=O)NC(=O)[C@H](CCCNC(=N)N)NC(=O)CNC(=O)[C@@H](NC(=O)[C@H](CCC(N)=O)NC(=O)CNC(=O)[C@H](CCSC)NC(=O)[C@@H](NC(=O)[C@H](CO)NC(=O)[C@H](CO)NC(=O)[C@@H]1CCCN1)[C@@H](C)O)C(C)C)C(=O)N[C@H](C(=O)NCC(=O)N[C@@H](CC(=O)O)C(=O)N[C@@H](CC(=O)O)C(=O)N[C@H](C(=O)N[C@@H](CC(N)=O)C(=O)N[C@@H](CCCNC(=N)N)C(=O)N[C@@H](CCCNC(=N)N)C(=O)N[C@@H](Cc1ccc(O)cc1)C(=O)N[C@@H](CC(=O)O)C(=O)N[C@@H](CO)C(=O)N[C@@H](CCC(=O)O)C(=O)O)[C@@H](C)CC)[C@@H](C)CC	variola virus F1L	binding		added: BH3 peptides		Kd	2640 nM

For quick reference, copied from above:
Structure (SMILES)	target or system	test	test system	conditions	scale	quantity	value
c1cc[n+](CCCCCCCCCC[n+]2ccccc2)cc1			mouse		relative to: LD50 pretreated over non-pretreated	protective ratio	0.91
